Assay results of several laboratories.
Numbered parts are unrelated; each lists some results of a single study.
Chain of UniProt P31751 (whole entry, looked up): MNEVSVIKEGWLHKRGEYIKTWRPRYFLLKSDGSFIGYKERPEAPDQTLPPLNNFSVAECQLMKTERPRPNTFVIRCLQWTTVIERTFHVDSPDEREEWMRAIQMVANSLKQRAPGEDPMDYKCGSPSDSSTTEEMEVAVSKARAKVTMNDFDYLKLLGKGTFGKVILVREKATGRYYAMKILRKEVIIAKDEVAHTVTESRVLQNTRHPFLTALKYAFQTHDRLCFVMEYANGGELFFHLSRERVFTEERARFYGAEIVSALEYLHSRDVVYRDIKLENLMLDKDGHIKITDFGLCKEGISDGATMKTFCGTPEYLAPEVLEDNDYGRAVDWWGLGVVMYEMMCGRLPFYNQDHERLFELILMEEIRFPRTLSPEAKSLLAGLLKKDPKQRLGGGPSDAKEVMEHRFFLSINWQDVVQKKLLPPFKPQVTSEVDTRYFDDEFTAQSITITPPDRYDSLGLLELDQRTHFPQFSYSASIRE
Chain of UniProt Q9BYT3 (whole entry, looked up): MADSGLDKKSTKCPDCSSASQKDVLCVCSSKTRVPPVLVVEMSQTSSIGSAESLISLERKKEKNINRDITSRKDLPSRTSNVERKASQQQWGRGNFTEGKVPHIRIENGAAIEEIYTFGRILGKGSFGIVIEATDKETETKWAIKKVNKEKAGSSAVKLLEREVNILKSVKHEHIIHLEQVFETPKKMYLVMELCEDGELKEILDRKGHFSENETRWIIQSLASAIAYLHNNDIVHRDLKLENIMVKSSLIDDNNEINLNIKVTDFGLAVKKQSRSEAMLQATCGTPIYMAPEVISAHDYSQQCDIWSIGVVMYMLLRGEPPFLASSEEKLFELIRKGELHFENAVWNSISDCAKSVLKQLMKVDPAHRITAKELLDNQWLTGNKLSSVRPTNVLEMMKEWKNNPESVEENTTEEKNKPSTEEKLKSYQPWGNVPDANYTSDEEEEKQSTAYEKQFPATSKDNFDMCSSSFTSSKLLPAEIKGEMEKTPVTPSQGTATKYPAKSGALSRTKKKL
Chain of UniProt Q9Y5S2 (whole entry, looked up): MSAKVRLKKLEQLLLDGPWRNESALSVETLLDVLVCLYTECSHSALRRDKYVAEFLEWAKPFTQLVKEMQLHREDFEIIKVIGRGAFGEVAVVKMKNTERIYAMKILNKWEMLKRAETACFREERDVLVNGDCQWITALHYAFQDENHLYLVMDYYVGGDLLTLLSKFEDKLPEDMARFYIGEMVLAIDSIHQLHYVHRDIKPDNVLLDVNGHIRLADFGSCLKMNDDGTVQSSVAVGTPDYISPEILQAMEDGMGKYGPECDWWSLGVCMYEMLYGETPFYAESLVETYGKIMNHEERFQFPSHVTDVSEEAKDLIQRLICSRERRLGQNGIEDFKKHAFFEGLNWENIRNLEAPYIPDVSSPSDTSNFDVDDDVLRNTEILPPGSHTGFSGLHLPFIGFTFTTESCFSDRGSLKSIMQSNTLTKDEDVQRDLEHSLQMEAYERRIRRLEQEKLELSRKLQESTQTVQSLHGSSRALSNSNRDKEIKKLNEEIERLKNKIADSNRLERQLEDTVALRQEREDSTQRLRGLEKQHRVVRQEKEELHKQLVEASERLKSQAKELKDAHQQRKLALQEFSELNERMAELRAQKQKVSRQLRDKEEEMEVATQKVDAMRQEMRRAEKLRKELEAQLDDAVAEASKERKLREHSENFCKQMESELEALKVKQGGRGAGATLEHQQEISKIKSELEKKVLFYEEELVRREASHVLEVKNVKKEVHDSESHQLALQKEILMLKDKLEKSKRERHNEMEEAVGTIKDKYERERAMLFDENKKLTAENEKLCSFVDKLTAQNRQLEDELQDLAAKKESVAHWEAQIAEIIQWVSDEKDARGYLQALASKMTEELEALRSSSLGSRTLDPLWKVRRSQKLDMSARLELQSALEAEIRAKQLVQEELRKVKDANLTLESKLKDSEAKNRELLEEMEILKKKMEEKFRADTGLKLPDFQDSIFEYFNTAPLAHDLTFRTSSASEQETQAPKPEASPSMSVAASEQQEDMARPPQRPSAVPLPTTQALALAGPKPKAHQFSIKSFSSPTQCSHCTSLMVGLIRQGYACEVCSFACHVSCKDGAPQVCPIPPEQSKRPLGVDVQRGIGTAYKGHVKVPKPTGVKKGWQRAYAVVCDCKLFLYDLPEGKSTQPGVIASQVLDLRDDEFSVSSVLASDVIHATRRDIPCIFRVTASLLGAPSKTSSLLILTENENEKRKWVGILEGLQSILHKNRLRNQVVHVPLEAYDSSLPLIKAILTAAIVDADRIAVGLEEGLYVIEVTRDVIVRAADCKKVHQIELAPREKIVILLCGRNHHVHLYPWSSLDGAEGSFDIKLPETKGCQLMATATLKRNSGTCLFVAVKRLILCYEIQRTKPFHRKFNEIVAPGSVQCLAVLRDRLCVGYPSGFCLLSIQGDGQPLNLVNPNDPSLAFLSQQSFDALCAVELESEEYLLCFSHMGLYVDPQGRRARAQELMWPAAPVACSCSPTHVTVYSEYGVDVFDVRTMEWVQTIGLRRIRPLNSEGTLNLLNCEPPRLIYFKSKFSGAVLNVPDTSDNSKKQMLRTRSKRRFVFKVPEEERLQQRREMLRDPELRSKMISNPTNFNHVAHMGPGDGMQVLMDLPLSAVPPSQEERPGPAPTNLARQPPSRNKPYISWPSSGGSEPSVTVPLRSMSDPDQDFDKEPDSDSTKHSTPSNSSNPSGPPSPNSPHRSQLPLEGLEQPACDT
Chain of UniProt Q13873 (whole entry, looked up): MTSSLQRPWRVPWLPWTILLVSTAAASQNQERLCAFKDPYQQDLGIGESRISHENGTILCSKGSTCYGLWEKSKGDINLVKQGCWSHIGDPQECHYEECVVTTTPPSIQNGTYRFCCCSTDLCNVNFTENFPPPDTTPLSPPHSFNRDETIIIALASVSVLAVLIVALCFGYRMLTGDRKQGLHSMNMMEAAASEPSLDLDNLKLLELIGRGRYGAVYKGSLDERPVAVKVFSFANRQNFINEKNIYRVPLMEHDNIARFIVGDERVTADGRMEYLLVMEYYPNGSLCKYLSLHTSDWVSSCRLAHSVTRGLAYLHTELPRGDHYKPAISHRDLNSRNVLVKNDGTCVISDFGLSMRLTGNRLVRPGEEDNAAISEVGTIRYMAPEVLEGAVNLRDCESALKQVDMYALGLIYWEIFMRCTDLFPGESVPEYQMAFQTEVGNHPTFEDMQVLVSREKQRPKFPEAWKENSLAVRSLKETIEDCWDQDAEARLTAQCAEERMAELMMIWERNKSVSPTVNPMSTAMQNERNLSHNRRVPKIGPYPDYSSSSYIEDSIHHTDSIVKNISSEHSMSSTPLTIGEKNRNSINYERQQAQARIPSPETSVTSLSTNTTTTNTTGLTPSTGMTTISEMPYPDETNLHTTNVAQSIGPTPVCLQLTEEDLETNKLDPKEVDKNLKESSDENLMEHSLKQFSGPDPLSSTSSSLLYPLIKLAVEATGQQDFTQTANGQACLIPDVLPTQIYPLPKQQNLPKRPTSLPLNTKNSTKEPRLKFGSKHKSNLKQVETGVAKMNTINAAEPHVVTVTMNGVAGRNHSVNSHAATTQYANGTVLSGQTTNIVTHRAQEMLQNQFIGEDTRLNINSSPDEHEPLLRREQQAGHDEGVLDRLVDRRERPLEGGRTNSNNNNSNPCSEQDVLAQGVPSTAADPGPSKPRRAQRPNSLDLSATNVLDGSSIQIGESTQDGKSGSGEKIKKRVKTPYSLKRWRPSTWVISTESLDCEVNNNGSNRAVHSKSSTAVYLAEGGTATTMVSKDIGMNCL
Chain of UniProt Q9NWZ3 (whole entry, looked up): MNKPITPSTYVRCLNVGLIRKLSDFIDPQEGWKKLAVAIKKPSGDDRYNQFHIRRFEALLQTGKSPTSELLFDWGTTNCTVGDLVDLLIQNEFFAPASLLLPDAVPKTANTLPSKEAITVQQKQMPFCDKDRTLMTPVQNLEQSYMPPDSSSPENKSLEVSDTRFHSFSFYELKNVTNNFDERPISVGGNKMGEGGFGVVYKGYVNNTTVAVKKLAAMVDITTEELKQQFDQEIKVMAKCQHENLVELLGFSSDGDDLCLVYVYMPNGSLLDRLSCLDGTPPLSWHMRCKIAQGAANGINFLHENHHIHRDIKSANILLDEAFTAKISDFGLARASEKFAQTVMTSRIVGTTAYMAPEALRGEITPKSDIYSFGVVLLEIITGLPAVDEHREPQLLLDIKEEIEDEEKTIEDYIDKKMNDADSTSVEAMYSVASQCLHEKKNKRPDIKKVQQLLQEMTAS
Chain of UniProt Q15835 (whole entry, looked up): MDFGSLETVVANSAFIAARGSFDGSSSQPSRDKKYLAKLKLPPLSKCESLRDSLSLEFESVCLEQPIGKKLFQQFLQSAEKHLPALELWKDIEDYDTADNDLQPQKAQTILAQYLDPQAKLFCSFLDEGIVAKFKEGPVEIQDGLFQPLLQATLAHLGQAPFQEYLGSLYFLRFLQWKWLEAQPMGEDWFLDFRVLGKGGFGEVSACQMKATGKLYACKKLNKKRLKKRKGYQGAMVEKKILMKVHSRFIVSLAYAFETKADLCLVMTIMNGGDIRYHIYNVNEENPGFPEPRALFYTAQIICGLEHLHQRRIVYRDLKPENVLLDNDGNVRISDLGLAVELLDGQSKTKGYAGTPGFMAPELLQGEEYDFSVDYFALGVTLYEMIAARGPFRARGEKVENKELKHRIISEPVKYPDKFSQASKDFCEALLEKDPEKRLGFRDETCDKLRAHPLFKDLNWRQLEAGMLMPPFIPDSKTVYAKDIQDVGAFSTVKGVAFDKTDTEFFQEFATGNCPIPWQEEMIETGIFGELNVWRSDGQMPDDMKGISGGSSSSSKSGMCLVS

Set 1 — SMILES: O=C(Nc1ccccc1)Nc1cccc(Oc2ccc3nccn3n2)c1; technique: competitive binding panel; tested at: 1 µM; baseline: vehicle; endpoint: remaining binding
GRK7 (Homo sapiens, UniProt Q8WTQ7): 100%
AKT2 (Homo sapiens, UniProt P31751): 100%
GRK1 (Homo sapiens, UniProt Q15835): 100%
SBK1 (Homo sapiens, UniProt Q52WX2): 100%
PRPF4B (Homo sapiens, UniProt Q13523); refers to: PRP4: 74%
EPHA4 (Homo sapiens, UniProt P54764): 100%
BMPR2 (Homo sapiens, UniProt Q13873): 100%
CAMK2A (Homo sapiens, UniProt Q9UQM7): 100%
PKN2 (Homo sapiens, UniProt Q16513): 100%

Set 2 — SMILES: CC(=O)c1ccc(N2CCOCC2)cc1O; effect on: enzyme activity; action: inhibitor; tested at: 0.5 µM; baseline: control; endpoint: remaining activity
PLK3 (Homo sapiens, UniProt Q9H4B4): 98.1%
TXK (Homo sapiens, UniProt P42681): 103%
DCLK2 (Homo sapiens, UniProt Q8N568): 101%
PAK3 (Homo sapiens, UniProt O75914): 93.9%
MAPK1 (Homo sapiens, UniProt P28482): 97.6%
KDR (Homo sapiens, UniProt P35968): 97.7%
AKT2 (Homo sapiens, UniProt P31751): 96.2%
MAPK11 (Homo sapiens, UniProt Q15759): 99.8%
GRK4 (Homo sapiens, UniProt P32298): 106%
MAPK14 (Homo sapiens, UniProt Q16539): 97.1%
CLK3 (Homo sapiens, UniProt P49761): 101%
CDC42BPB (Homo sapiens, UniProt Q9Y5S2): 87.2%
Cyclin-dependent kinase 9, with cyclin K (CDK9, Homo sapiens, UniProt P50750): 106%
MAP2K1 (Homo sapiens, UniProt Q02750): 95.2%

Set 3 — organism: Sarcocystis neurona; effect on: parasite growth; tested at: 10 µM; time: 96 h; notes: first screen; baseline: untreated; endpoint: log2 fold change
Cc1ccc(S(=O)(=O)NC(=O)NN2CCCCCC2)cc1: 0.3
COc1cc(C(=O)NS(=O)(=O)c2ccccc2C)ccc1Cc1cn(C)c2ccc(NC(=O)OC3CCCC3)cc12: -0.2
C=CC[C@@H]1/C=C(\C)C[C@H](C)C[C@H](OC)[C@H]2O[C@@](O)(C(=O)C(=O)N3CCCC[C@H]3C(=O)O[C@H](/C(C)=C/[C@@H]3CC[C@@H](O)[C@H](OC)C3)[C@H](C)[C@@H](O)CC1=O)[C@H](C)C[C@@H]2OC: -0.75
CN1CCC(=C2c3ccccc3C=Cc3ccccc32)CC1: -0.33
OC(c1cc(C(F)(F)F)nc2c(C(F)(F)F)cccc12)C1CCCCN1 (stereo not drawn): -0.45
Nc1ncnc2c1ncn2[C@@H]1O[C@H](CO)[C@@H](O)[C@@H]1O: 0.13
CC(C)Oc1ccc2c(=O)c(-c3ccccc3)coc2c1: 2.39
CCOc1cc(N)c(Cl)cc1C(=O)NCC1CN(Cc2ccc(F)cc2)CCO1 (stereo not drawn): -0.4
Clc1ccccc1C(c1ccccc1)(c1ccccc1)n1ccnc1: -1.14
CN(C)CCCSc1ccccc1NC(=O)/C=C/c1ccccc1: -0.42

Set 4 — effect on: cell-free assay; technique: competition with immobilised ligand; tested at: 1 µM; endpoint: remaining binding
SMILES: CCC(=O)N[C@@H]1CC[C@H](C(=O)N(C)c2ccc(-c3nc4ccccc4o3)cc2)C1
ERBB2 (Homo sapiens, UniProt P04626): 100%
EGFR (Homo sapiens, UniProt P00533): 100%
STK32C (Homo sapiens, UniProt Q86UX6): 73%
IRAK4 (Homo sapiens, UniProt Q9NWZ3): 100%
CDKL1 (Homo sapiens, UniProt Q00532): 90%
STK33 (Homo sapiens, UniProt Q9BYT3): 100%
WEE2 (Homo sapiens, UniProt P0C1S8): 100%
NEK11 (Homo sapiens, UniProt Q8NG66): 100%
EPHA3 (Homo sapiens, UniProt P29320): 100%

Repeated from above (set 2):
MAPK11 (Homo sapiens, UniProt Q15759): 99.8%
GRK4 (Homo sapiens, UniProt P32298): 106%
MAPK14 (Homo sapiens, UniProt Q16539): 97.1%
CLK3 (Homo sapiens, UniProt P49761): 101%
CDC42BPB (Homo sapiens, UniProt Q9Y5S2): 87.2%
Cyclin-dependent kinase 9, with cyclin K (CDK9, Homo sapiens, UniProt P50750): 106%
